# Measurements pooled from the literature.
# Every numbered part comes from another study and shows a few of its results, in no order.
# UniProt P45985, sequence (whole entry, looked up): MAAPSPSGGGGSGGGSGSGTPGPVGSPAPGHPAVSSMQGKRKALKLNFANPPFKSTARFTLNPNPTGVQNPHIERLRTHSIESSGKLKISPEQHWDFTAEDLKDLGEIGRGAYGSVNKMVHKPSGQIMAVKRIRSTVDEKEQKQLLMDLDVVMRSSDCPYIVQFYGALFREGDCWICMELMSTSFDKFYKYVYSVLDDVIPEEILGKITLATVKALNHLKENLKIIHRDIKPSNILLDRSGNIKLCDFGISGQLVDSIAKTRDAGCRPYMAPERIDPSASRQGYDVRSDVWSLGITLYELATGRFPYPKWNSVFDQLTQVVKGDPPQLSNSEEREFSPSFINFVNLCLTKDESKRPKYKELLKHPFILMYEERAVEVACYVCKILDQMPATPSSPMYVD
# UniProt Q9NSY1, sequence (whole entry, looked up): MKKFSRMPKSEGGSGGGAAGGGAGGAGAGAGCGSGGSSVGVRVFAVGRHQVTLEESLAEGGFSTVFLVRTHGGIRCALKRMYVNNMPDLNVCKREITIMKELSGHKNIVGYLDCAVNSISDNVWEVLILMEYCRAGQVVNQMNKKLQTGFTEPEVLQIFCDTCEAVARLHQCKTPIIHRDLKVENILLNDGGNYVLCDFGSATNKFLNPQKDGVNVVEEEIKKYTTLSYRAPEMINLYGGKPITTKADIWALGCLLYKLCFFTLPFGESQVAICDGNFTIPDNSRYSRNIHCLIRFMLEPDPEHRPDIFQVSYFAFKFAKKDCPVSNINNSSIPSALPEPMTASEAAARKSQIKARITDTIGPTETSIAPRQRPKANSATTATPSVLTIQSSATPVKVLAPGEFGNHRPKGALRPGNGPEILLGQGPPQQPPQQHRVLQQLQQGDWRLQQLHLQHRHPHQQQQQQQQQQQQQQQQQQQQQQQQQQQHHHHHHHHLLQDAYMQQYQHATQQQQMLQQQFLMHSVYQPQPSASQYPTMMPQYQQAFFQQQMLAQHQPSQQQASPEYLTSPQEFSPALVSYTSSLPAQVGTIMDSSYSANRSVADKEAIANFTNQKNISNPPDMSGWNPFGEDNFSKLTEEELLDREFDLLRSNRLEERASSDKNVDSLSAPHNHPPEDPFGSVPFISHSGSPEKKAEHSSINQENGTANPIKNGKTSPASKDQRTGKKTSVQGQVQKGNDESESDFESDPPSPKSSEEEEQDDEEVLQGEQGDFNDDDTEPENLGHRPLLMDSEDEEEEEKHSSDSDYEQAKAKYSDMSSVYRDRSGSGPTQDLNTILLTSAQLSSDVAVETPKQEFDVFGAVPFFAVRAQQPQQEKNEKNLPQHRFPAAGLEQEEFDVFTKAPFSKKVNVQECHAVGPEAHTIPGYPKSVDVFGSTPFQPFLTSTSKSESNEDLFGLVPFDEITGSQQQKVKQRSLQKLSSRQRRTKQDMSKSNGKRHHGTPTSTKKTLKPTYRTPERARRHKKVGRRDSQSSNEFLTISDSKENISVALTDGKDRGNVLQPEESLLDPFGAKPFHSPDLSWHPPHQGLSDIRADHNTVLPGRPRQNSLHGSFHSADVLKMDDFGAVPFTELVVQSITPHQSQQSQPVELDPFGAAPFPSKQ
# UniProt Q00537, sequence (whole entry, looked up): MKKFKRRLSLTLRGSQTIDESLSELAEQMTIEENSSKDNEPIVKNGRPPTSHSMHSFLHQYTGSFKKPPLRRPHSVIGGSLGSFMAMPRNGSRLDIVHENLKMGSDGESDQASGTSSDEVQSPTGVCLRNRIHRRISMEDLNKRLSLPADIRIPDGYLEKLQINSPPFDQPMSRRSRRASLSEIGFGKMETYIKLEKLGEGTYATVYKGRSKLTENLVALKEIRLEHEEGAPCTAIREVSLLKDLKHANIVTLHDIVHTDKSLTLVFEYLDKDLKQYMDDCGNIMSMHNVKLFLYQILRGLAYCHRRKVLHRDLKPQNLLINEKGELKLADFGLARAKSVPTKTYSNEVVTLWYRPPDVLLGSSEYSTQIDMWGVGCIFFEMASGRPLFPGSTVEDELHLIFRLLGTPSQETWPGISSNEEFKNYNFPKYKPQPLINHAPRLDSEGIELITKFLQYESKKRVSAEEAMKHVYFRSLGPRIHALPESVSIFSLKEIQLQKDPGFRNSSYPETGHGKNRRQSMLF
# UniProt Q86UX6, sequence (whole entry, looked up): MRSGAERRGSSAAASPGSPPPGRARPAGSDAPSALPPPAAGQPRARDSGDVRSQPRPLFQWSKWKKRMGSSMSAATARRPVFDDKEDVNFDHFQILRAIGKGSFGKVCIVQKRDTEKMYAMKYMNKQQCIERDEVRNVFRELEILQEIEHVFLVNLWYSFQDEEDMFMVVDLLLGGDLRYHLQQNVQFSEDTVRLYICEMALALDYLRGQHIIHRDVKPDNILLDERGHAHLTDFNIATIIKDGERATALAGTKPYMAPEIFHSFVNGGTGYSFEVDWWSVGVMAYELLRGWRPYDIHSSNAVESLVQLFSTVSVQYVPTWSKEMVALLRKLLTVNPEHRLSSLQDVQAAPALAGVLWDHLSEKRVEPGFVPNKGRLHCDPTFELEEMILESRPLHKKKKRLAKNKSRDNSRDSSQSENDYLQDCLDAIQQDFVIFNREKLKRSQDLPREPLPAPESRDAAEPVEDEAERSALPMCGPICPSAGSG

# Set 1
# SMILES: Nc1cnc(N2CCc3cc(S(=O)(=O)Nc4c(F)cc(Cl)cc4F)cc(N4CCCC4=O)c32)nc1
# Effect on: cell-free assay
# Technique: competition with immobilised ligand
# Concentration: 1 µM
target,remaining binding
"BMP-2-inducible protein kinase (BMP2K, Homo sapiens, UniProt Q9NSY1)",88%
"Cyclin-dependent kinase 17 (CDK17, Homo sapiens, UniProt Q00537)",100%
"Serine/threonine-protein kinase 32C (STK32C, Homo sapiens, UniProt Q86UX6)",100%
"Receptor-type tyrosine-protein kinase FLT3 (FLT3, Homo sapiens, UniProt P36888, D835H)",100%
"Dual specificity mitogen-activated protein kinase kinase 4 (MAP2K4, Homo sapiens, UniProt P45985)",100%

# Set 2
# Species: human
# Matrix: microsomes or S9
# Concentration: 2 µM
# Time: 0.5 h
SMILES,remaining compound
COc1cc(=O)n2c(c1C(=O)NCc1ccccc1C(F)(F)F)CCCC2,0.959%
Cc1cccc(CNC(=O)c2c(OCC(C)C)cc(=O)n3c2CCCCC3)c1,5.29%
O=C(OCc1ccccc1)N1CCC2(CC1)CNc1ccccc12,9.66%
COCC(=O)NC(c1ccccc1)c1ccccc1,97.2%
CC(=O)N1CCC2(CC1)OC(=O)C(C)=C2C(=O)N1CCN(C)CC1,108%

# Mixed results
Compound,system,setting,measurement,result
CC(C)n1cnc(-c2ccc(F)cc2)c1-c1ncc(C(=O)Nc2ccc(N3CCN(C)CC3)cc2)[nH]1,IPF patients,"30 mg once daily, adverse event",Hypoalbuminaemia incidence,0%
CCC[C@@H]1NC(=O)CSC[C@@H](C(=O)OCC)N(C)C(=O)[C@H](CC(C)C)NC(=O)[C@@H](C)N(C)C(=O)[C@@H](CC(C)C)NC(=O)[C@H](C)N(C)C(=O)[C@H]2CCCN2C(=O)[C@H](CC(C)C)NC(=O)CN(CCC)C1=O,hydrocarbon/water,,logD,0.691

# Excerpt of the above (set 2):
SMILES,remaining compound
O=C(OCc1ccccc1)N1CCC2(CC1)CNc1ccccc12,9.66%
COCC(=O)NC(c1ccccc1)c1ccccc1,97.2%
